Results gathered from unrelated publications.
Compare with care: the assays were run in different laboratories.
UCHL1: Ubiquitin carboxyl-terminal hydrolase isozyme L1 (UCHL1, Homo sapiens, UniProt P09936)
UniProt P09936, sequence (whole entry, looked up): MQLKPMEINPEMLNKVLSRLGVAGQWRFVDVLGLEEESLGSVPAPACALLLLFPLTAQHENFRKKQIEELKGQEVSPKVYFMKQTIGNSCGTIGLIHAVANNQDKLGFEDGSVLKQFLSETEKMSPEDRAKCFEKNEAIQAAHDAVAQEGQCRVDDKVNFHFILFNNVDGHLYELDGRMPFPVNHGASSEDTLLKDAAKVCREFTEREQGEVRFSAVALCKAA
RAF1: RAF proto-oncogene serine/threonine-protein kinase (RAF1, Homo sapiens, UniProt P04049)

Compound	target or system	assay	system	setting	scale	measurement	value
CCc1ccc(Cc2cnc(NC(=O)CCl)s2)cc1	UCHL1	covalent, intact protein LC-MS	–	12.5 µM	–	labelling	46.9%
CC/C(=N\NC(=O)NCc1cccc(O)c1)c1ccc(O)c(C)c1O	RAF1	kinase activity	–	0.1 µM	–	inhibition	5.5%
[2H]c1cc(C)c(NC(=O)c2cnc(Nc3cc(N4CCC(O)CC4)nc(C)n3)s2)c(Cl)c1	RAF1	–	–	0.001 µM	–	inhibition	< 50%
O=C(Nc1[nH]nc(-c2ccccn2)c1C1CC1)N1CC[C@@H](Cn2cc(C(F)(F)F)cn2)C1	Trypanosoma cruzi	reporter translation, Renilla luciferase mRNA translation	cell-free extract	40 µM	baseline: DMSO	inhibition	9%
COc1cc(F)ccc1-c1ncnc(Nc2cccc(C[S@](C)(=N)=O)c2)n1	RAF1	kinase activity	–	10 µM, with: 10 µM ATP	–	remaining activity	91%
[2H]c1cc(C)c(NC(=O)c2cnc(Nc3cc(N4CCCCC4)nc(C)n3)s2)c(Cl)c1	RAF1	–	–	0.01 µM	–	inhibition	< 30%
COc1ccc(-c2ccc3c(N4CCOC[C@@H]4C)nc(N4CCOC[C@@H]4C)nc3n2)cc1COC(=O)CCOCCOCCOCCONC(=O)c1ccc(F)c(F)c1Nc1ccc(I)cc1F	RAF proto-oncogene serine/threonine-protein kinase (RAF1, Homo sapiens, UniProt P04049, Y340D/Y341D)	kinase activity, inhibitor	–	2.5 µM	–	inhibition	inhibited
O=C(NC1CCC1)c1ccc2nc(-c3cccc(NS(=O)(=O)NCCN4CCCCC4)c3)cn2c1	RAF1	enzyme activity	–	10 µM	–	remaining activity	100%
Cc1cc(Nc2cc(N3CCN(C)CC3)nc(Sc3ccc(NC(=O)C4CC4)cc3)n2)[nH]n1	RAF1	kinase activity, KinaseProfiler	–	0.03 µM, species human	baseline: control	remaining activity	95%
N#Cc1cc(C(C=O)=C(Cl)c2ccccc2)c([N+](=O)[O-])cc1C#N	UCHL1	covalent, intact protein LC-MS	–	12.5 µM	–	labelling	13.8%
CNS(=O)(=O)Nc1nccc(Cc2c(C)c3ccc(Oc4ncccn4)cc3oc2=O)c1F	RAF1	–	–	10 µM	–	inhibition	82%
C=CC(=O)N1CCC(COCC(=O)N2CCN(c3nc(-c4cnc(N)nc4C(F)F)nc(N4CCOC[C@@H]4C)n3)CC2)CC1	RAF1	KINOMEscan	–	1 µM	–	remaining binding	100%

For quick reference, copied from above:
Compound	target or system	assay	system	setting	scale	measurement	value
[2H]c1cc(C)c(NC(=O)c2cnc(Nc3cc(N4CCC(O)CC4)nc(C)n3)s2)c(Cl)c1	RAF1	–	–	0.001 µM	–	inhibition	< 50%
O=C(Nc1[nH]nc(-c2ccccn2)c1C1CC1)N1CC[C@@H](Cn2cc(C(F)(F)F)cn2)C1	Trypanosoma cruzi	reporter translation, Renilla luciferase mRNA translation	cell-free extract	40 µM	baseline: DMSO	inhibition	9%
